Measurements from different studies.
± marks the error that the study gave.
B1: STAMBPL1 C402S (Homo sapiens, UniProt Q96FJ0); sequence looked up; chain MDQPFTVNSLKKLAAMPDHTDVSLSPEERVRALSKLGCNITISEDITPRRYFRSGVEMERMASVYLEEGNLENAFVLYNKFITLFVEKLPNHRDYQQCAVPEKQDIMKKLKEIAFPRTDELKNDLLKKYNVEYQEYLQSKNKYKAEILKKLEHQRLIEAERKRIAQMRQQQLESEQFLFFEDQLKKQELARGQMRSQQTSGLSEQIDGSALSCFSTHQNNSLLNVFADQPNKSDATNYASHSPPVNRALTPAATLSAVQNLVVEGLRCVVLPEDLCHKFLQLAESNTVRGIETCGILCGKLTHNEFTITHVIVPKQSAGPDYCDMENVEELFNVQDQHDLLTLGWIHTHPTQTAFLSSVDLHTHCSYQLMLPEAIAIVCSPKHKDTGIFRLTNAGMLEVSASKKKGFHPHTKEPRLFSICKHVLVKDIKIIVLDLR
B2: PUX3 (Arabidopsis thaliana, UniProt Q9SUG6); chain MSSKDKKLSKPTSGRTGGIRTLSDLNRRSEPDSDSDSDGPQEYFTGGEKSGMLVQDPTKEPKHDDVDEIFNQARQLGAVEGPLEHPSSSRSFTGTGRLLSGESVPTALQQPEPVIHNIIFWSNGFTVDDGPLRKLDDPENASFLDSIRKSECPKELEPVDKRAPVHVNLMRRDEKCPEKEKLKVSFQGVGRTLGGASSSTASSQSNLTDVAAVQSPLQSLVVDETLPSTSIQLRLADGTRMVAKFNNHHTVNDIRGFIEFSRPGNPNNYTLQVMGFPPKPLTDPSQTIEQAGLASSVVIQKF
B3: EFR3A 721-791 (Homo sapiens, UniProt Q14156); chain SNTEEITFEALKKAIDTSGMEEQEKEKRRLVIEKFQKAPFEEIAAQCESKANLLHDRLAQILELTIRPPPS
B4: IgG L:G68E; V domains shown; VH QVQLVQSGAEVKKPGASVKVSCKASGYTFTNYGLSWVRQAPGQGLEWMGWISANNGDTNYGQEFQGRVTMTTDTSTSTAYMELRSLRSDDTAVYYCARDSSSSWARWFFDLWGRGTLVTVSS; VL SYVLTQPPSVSVAPGKTARITCGGNIIGSKLVHWYQQKPGQAPVLVIYDDGDRPSGIPERFSGSNSENTATLTISRVEAGDEADYYCQVWDTGSDPVVFGGGTKLTVL
B5: CFH 1108-1231 (Homo sapiens, UniProt P08603); sequence looked up; chain KCGPPPPIDNGDITSFPLSVYAPASSVEYQCQNLYQLEGNKRITCRNGQWSEPPKCLHPCVISREIMENYNIALRWTAKQKLYSRTGESVEFVCKRGYRLSSRSHTLRTTCWDGKLEYPTCAKR
Sequence of UniProt P25963 (whole entry, looked up): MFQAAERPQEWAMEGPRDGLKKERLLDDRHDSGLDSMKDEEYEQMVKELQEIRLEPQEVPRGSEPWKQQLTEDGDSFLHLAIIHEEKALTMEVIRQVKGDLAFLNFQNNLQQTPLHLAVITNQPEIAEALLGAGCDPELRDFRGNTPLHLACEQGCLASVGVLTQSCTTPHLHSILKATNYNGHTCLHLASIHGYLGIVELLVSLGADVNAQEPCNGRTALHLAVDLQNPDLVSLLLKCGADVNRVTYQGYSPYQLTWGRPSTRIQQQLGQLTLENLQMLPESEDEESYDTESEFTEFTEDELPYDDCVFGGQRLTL
Sequence of UniProt P01024 (whole entry, looked up): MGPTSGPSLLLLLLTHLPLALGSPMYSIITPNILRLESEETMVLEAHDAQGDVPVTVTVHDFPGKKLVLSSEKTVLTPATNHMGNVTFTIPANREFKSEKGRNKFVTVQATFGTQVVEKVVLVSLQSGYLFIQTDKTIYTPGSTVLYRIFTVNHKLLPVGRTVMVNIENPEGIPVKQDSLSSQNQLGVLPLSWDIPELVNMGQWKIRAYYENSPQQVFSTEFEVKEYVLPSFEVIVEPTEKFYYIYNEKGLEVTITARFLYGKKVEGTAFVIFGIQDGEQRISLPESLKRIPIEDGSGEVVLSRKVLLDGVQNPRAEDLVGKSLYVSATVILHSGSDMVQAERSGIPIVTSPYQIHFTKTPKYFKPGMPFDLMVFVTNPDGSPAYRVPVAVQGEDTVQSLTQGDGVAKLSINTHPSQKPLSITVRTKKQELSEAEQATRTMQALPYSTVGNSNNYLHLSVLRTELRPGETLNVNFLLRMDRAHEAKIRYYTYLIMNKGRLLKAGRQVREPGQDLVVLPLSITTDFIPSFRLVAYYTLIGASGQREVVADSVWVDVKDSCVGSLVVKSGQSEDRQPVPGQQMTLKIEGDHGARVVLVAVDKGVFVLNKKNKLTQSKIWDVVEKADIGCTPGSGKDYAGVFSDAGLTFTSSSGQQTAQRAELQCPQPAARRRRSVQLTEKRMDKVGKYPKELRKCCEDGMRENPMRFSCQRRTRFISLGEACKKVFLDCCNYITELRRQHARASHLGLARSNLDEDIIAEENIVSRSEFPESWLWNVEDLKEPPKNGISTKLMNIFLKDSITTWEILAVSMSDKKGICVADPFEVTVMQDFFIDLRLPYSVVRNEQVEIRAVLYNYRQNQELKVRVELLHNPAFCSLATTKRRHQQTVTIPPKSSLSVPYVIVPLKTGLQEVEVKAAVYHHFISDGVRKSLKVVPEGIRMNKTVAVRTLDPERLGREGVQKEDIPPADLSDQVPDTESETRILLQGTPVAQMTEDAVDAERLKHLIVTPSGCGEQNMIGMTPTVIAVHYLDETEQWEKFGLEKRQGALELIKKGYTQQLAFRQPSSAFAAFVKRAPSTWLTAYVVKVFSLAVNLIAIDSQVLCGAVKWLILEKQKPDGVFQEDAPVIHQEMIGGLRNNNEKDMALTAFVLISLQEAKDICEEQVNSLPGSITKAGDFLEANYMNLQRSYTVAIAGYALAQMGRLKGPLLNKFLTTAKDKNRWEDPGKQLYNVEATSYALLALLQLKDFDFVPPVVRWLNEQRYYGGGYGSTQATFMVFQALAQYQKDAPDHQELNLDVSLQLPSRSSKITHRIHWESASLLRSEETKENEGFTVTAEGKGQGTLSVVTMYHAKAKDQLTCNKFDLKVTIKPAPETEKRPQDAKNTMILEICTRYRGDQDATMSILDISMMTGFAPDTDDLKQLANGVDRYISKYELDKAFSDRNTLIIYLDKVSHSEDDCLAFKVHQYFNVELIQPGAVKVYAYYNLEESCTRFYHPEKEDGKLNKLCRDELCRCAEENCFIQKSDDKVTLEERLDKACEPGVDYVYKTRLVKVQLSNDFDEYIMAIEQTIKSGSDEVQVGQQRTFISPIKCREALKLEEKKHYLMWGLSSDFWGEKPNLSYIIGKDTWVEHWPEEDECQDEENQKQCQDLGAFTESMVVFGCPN
Sequence of UniProt P39458 (whole entry, looked up): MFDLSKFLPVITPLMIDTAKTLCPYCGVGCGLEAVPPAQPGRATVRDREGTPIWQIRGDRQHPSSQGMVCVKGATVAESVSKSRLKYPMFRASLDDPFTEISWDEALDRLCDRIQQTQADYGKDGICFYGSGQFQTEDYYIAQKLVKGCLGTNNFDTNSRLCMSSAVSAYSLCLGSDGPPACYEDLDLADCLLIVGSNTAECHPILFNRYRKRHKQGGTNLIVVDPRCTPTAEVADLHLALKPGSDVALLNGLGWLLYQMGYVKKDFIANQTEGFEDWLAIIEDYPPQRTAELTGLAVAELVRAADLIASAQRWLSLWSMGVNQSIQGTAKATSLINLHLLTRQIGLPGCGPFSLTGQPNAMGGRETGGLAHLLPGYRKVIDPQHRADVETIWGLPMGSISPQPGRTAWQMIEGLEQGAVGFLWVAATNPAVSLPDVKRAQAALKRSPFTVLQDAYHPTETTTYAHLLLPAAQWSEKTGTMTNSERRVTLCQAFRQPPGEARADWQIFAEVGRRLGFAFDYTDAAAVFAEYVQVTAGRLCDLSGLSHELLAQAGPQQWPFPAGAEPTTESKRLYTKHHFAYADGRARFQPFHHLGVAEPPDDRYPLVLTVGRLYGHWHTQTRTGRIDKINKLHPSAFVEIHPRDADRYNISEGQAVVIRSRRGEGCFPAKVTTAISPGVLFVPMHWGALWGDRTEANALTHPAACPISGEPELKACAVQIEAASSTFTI
Sequence of UniProt P54609 (whole entry, looked up): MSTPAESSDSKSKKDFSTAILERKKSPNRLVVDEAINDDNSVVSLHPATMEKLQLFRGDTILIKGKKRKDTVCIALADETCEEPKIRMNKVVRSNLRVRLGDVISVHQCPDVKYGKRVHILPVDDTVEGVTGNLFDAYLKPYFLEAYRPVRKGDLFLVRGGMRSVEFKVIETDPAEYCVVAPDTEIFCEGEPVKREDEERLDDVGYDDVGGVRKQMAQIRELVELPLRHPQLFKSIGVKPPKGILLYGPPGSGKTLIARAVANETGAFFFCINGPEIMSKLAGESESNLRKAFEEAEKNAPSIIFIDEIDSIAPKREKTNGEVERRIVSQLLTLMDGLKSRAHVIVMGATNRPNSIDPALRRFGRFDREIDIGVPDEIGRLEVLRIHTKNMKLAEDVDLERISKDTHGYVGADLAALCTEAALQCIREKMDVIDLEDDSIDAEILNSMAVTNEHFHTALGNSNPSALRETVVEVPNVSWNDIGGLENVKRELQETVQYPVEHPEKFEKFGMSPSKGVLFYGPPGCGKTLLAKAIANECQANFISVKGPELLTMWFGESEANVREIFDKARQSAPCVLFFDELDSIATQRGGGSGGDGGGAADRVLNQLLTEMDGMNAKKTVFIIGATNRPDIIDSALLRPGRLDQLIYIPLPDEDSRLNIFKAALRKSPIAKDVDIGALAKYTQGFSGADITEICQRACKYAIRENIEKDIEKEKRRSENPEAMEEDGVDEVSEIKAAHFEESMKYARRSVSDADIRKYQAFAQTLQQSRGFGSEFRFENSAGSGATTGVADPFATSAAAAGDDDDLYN

GSGASGTSKCCYSLPATT (designed peptide)  Kd (ERBB2 23-652 (Homo sapiens, UniProt P04626); fluorescence titration; peptide; apparent): 0.15 ± 0.02 µM
NRVDSKETEC  binding intensity (human MAGI1-3/6 PDZ construct (MBP fusion); automated holdup; peptide, crude extract; concentration not given, corrected by standard peak, unit not given; relative to: biotin control resin, higher = stronger binding): 0.0217
FKBP12  co-IP enrichment (co-immunoprecipitation; human RBC membrane; DSSO crosslinker, unit not given, added: Band 3 peptide 1-56 bait; relative to: negative control): 4.73
B1 (STAMBPL1 C402S)  Kd (UBB mature (UniProt P0CG47); ITC): 12.4 ± 3.2 µM
B2 (PUX3)  Kd (CDC48A 1-463 (Arabidopsis thaliana, UniProt P54609); ITC; 25 °C): 3.4 ± 0.5 µM
FGB (Homo sapiens, UniProt P02675)  cross-linked residues (AHNAK2 (Homo sapiens, UniProt Q8IVF2); cross-linking MS; added: DSSO): K77 to K4060
DDRHRIEEKRKRTYETFKSIMKKSPFNGP (Rela 293-321 (Mus musculus, UniProt Q04207); sequence looked up)  Kd (NFKBIA 67-206 (Homo sapiens, UniProt P25963); ITC; peptide; NaCl 150 mM): 0.746 ± 0.016 µM
B3 (EFR3A 721-791)  Kd (PI4KA/TTC7A/FAM126A TTC7A/FAM126A; BLI): 0.00034 ± 0.00013 µM
EVPVPPPVPPRRRPES (SOS1 peptide; FITC label)  Kd (GRB2 SH3-1, pY52 (Homo sapiens); fluorescence polarization; peptide): 9.4 µM
MMHVNNFPFRRHSWICFDVD (PDE4D 1-20; pS13)  Kd (AKAP6 P1400S (Homo sapiens, UniProt Q13023-1); SPR; peptide): 2.7 µM
GSGAGSETVV  binding intensity (human MAGI1-3/6 PDZ construct (MBP fusion); automated holdup; peptide, purified PDZ protein; concentration not given, unit not given; relative to: biotin control resin, higher = stronger binding): 0.0513
petF ferredoxin (Synechocystis sp. PCC 6803, UniProt P27320)  Kd (narB (Synechococcus sp. PCC 7942, UniProt P39458); UV-visible difference titration): 7.8 ± 2.1 µM
KLLITIHDRKEFAKFEEERARAKWDTANNPLYKEATSTFTNITYRGT (ITGB3 742-788 (Homo sapiens, UniProt P05106); sequence looked up)  Kd (Tln1 309-405 (Mus musculus, UniProt P26039); NMR titration): 273 µM
B4 (IgG L:G68E)  Kd (IL13 fragment (Homo sapiens); SPR; antibody): 0.00052 µM
B5 (CFH 1108-1231)  Kd (C3 996-1303 (Homo sapiens, UniProt P01024); SPR): 8.2 ± 0.6 µM
